{"data": "Results pooled from the literature", "target": "Mitogen-activated protein kinase 4 (MAPK4, Homo sapiens, UniProt P31152)", "note": "Protocols differ between the studies behind these lines."}
{"SMILES": "C=CC(=O)N1CCc2ccc(-n3c(=O)ccc4cnc5ccc(-c6cnn(C)c6)cc5c43)cc21", "assay": "KINOMEscan", "setting": "1 µM", "how to read": "reference: DMSO control", "endpoint": "remaining binding", "value": "100%"}
{"SMILES": "CC(C)=CC1OC(C)(C)C2C=C3C(=O)C(Cl)=CC(O)C3C3C(O)C4OC4C(=O)C132 (stereo not drawn)", "assay": "cell-free assay, competition with immobilised ligand", "setting": "10 µM", "endpoint": "remaining binding", "value": "77%"}
{"SMILES": "Cc1ccc(-c2c(/C=C(\\C#N)C(=O)NC(C)C)n(CCCO)c3ncnc(N)c23)cc1", "assay": "cell-free assay, competition with immobilised ligand", "setting": "1 µM", "endpoint": "remaining binding", "value": "90%"}
{"SMILES": "COc1c(Cl)cccc1Nc1c(-c2ccncc2C#C[C@@]2(C)CCCN2C(=O)/C=C/CN(C)C)[nH]c2c1C(=O)NCC2", "assay": "binding, competition with immobilised ligand", "setting": "3 µM", "endpoint": "remaining binding", "value": "100%"}
{"SMILES": "C=CC(=O)N1CCCC(n2c(=O)c3ncccc3n(Cc3ccc(Oc4ccccc4)cc3)c2=O)C1 (stereo not drawn)", "assay": "cell-free assay, competition with immobilised ligand", "setting": "1 µM", "endpoint": "remaining binding", "value": "99%"}
{"SMILES": "Nc1ncc2c(n1)-c1c([nH]c3ccc(C4=CCOCC4)cc13)CCC2", "assay": "binding, competition with immobilised ligand", "setting": "1 µM", "endpoint": "remaining binding", "value": "100%"}
{"SMILES": "CNC1C[S+]2CC[S+]3CC[S+](C1)[Ru-4]321([N]=C=S)[n]2c3ccc(OC)cc3c3c4c(c5cc(F)c[n+]1c5c32)C(=O)NC4=O (stereo not drawn)", "assay": "KinomeScan", "setting": "0.1 µM", "how to read": "reference: untreated", "endpoint": "remaining binding", "value": "86%"}
{"SMILES": "Cc1cnc2nc1Nc1cccc(c1)COC/C=C/COCc1cc(ccc1OCCN1CCOCC1)N2", "assay": "binding, competition with immobilised ligand", "setting": "0.1 µM", "endpoint": "remaining binding", "value": "100%"}
{"SMILES": "COc1cc(Nc2nc(C)cc(-c3cnn4nc(OC)ccc34)n2)cc(C(F)(F)F)c1", "assay": "inhibitor", "setting": "1 µM, ERK4", "how to read": "reference: control", "endpoint": "remaining activity", "value": "100%"}
{"SMILES": "CCN1CCN(Cc2ccc(C(=O)Nc3ccc(C)c(NCc4cnc5[nH]ccc5c4OC)c3)cc2C(F)(F)F)CC1", "assay": "binding, competition with immobilised ligand", "setting": "1 µM", "endpoint": "remaining binding", "value": "100%"}
{"SMILES": "COc1cc(Nc2nccc(-c3cnn4nc(OC)ccc34)n2)cc(C(F)(F)F)c1", "assay": "binding, competition with immobilised ligand", "setting": "1 µM", "endpoint": "remaining binding", "value": "88%"}
{"SMILES": "CNC(=O)C1CCN(c2cc(C)c(F)cc2NC(=O)c2ccc(-c3cc(O)ccc3C)c(C)c2)CC1", "assay": "binding, competition with immobilised ligand", "setting": "1 µM", "endpoint": "remaining binding", "value": "99%"}
{"note": "Excerpt of the above:"}
{"SMILES": "Cc1cnc2nc1Nc1cccc(c1)COC/C=C/COCc1cc(ccc1OCCN1CCOCC1)N2", "assay": "binding, competition with immobilised ligand", "setting": "0.1 µM", "endpoint": "remaining binding", "value": "100%"}
